Measured values pooled from the literature.
Lines come from different studies, so protocols differ. “And” joins repeats or separate records; there may be more than shown. ± gives the spread as reported. Converted amounts (≈) assume the structure as drawn.
Sequence of UniProt P07197 (whole entry, looked up): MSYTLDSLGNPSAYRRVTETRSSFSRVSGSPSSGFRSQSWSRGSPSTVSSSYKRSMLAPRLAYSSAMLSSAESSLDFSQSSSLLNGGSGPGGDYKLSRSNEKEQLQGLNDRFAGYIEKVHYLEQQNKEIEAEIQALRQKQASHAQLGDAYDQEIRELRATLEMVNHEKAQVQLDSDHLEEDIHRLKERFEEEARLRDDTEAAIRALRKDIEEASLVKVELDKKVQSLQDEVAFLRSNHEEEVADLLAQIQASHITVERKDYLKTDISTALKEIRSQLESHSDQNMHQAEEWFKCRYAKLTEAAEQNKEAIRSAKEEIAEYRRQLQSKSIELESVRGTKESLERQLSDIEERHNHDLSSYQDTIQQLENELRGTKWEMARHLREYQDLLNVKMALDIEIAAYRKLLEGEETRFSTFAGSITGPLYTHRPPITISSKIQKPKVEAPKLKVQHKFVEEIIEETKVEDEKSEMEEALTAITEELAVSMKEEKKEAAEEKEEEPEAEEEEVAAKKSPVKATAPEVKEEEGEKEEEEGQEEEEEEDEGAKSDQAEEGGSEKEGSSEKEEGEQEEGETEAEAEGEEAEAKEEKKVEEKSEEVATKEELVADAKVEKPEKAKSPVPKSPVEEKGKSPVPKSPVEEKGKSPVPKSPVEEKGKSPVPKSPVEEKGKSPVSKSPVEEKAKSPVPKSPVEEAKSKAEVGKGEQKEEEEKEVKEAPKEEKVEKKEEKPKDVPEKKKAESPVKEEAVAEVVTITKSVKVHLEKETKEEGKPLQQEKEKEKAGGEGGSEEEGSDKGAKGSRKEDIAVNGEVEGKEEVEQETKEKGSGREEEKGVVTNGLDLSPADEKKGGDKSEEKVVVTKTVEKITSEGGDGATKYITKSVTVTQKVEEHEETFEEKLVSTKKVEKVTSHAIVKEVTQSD
Sequence of UniProt P56817 (whole entry, looked up): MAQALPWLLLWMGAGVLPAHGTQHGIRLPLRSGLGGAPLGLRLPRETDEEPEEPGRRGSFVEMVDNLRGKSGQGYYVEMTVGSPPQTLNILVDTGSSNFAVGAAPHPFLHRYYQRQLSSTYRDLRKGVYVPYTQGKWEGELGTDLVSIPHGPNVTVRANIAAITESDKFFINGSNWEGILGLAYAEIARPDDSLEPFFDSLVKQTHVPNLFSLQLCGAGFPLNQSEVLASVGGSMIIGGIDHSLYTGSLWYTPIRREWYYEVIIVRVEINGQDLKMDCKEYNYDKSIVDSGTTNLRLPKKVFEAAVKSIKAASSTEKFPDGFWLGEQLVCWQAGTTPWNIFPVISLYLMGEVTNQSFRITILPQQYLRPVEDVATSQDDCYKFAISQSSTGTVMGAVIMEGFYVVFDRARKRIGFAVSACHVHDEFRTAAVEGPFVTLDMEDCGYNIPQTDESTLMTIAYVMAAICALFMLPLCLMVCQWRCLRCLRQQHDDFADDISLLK
Sequence of UniProt Q13237 (whole entry, looked up): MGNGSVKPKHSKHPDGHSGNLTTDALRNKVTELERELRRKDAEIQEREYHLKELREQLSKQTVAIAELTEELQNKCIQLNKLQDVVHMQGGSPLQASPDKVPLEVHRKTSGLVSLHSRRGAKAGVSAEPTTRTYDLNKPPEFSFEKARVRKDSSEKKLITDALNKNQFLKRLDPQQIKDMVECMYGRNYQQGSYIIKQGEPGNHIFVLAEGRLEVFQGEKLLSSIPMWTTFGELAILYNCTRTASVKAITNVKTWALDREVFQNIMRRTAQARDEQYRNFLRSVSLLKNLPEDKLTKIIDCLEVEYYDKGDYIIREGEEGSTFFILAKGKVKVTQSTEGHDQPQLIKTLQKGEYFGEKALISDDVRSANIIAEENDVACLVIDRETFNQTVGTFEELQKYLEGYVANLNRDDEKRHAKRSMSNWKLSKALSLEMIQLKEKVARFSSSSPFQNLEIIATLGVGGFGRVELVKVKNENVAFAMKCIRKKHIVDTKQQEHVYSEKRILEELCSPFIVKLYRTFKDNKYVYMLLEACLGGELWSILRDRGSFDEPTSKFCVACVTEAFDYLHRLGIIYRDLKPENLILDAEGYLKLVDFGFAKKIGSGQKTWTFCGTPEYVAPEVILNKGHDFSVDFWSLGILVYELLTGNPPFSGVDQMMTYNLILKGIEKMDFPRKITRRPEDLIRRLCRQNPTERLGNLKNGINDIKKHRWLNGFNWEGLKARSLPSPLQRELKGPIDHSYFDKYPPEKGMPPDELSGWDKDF
Sequence of UniProt O15244 (whole entry, looked up): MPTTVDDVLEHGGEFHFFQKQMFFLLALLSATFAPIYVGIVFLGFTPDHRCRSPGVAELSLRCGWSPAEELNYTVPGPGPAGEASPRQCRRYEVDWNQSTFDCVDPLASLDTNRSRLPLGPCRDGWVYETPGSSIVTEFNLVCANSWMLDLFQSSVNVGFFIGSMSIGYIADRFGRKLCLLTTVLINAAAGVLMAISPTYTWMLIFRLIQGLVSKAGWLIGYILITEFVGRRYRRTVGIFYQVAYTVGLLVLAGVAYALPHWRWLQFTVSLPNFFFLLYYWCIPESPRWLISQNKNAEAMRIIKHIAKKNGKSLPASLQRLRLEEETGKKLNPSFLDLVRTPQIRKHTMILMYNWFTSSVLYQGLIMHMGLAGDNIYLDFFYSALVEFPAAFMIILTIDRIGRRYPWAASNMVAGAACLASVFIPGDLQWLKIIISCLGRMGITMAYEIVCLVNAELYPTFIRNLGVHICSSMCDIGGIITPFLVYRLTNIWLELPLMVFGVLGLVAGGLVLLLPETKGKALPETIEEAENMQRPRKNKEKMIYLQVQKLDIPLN
Sequence of UniProt Q99788 (whole entry, looked up): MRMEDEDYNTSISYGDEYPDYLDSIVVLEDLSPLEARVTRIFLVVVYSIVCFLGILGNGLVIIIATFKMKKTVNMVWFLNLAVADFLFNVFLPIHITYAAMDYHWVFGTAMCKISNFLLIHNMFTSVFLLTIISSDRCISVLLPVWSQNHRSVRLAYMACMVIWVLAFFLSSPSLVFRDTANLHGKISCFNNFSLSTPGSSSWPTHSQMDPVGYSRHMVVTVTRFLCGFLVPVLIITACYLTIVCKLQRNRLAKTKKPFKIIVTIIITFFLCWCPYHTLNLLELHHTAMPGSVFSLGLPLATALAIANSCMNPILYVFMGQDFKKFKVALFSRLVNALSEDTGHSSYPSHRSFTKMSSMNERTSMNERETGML

| Compound | target or system | test | test system | setting | scale | endpoint | result |
| --- | --- | --- | --- | --- | --- | --- | --- |
| CN1CC[C@@H](c2c(O)cc(O)c3c(=O)cc(-c4ccc(C(F)(F)F)cc4Cl)oc23)[C@@H]1CO |  | item: Sepsis | relapsed or refractory haematological malignancies | oral, dose not given, grade 3 to 4 |  | adverse event incidence | 12.5% |
| CC(C)CC(=O)OC[C@H]1O[C@@](C#N)(c2ccc3c(N)ncnn23)[C@H](O)[C@@H]1O | ATP-dependent translocase ABCB1 (ABCB1, Homo sapiens, UniProt P08183) |  | Caco-2 | 9 µM, 2 h |  | efflux ratio | 6.28 |
| COc1cc(Nc2ncc(F)c(Nc3ccc4c(n3)NC(=O)C(C)(C)O4)n2)cc(OC)c1OC | Beta-secretase 1 (BACE1, Homo sapiens, UniProt P56817) |  |  | β-Secretase |  | IC50 | > 10 µM |
| COc1ccc(-n2nc(C(C)=O)s/c2=N\N=C(/C)c2ccc(NC(C)=O)cc2)cc1 | WI-38 |  |  | 10 µM, 24 (unit not given) |  | viability | 4.33% |
| CC[C@H](C)[C@@H]1NC(=O)[C@@H]2CCCN2C(=O)[C@H](CC(C)C)NC(=O)[C@H](CC(C)C)NC(=O)CNC(=O)[C@@H](NC(=O)[C@@H](NC(=O)[C@H](CC(=O)O)NC(=O)CNC(=O)[C@@H](NC(=O)[C@H](C)NC(=O)CNC(=O)[C@H](CCCCN)NC(=O)[C@H](CC(C)C)NC(=O)[C@H](CC(C)C)NC(=O)[C@H](CCCCN)NC(=O)CNC(=O)[C@@H](NC(=O)[C@@H](N)CC(C)C)C(C)C)C(C)C)C(C)C)CSSC[C@@H](C(=O)O)NC1=O |  | RNA-seq, item: Grap2 | mouse, traumatic brain injury model, frontal cortex and hippocampus | dose not given | baseline: TBI alone | log2 fold change | -1.59 |
| CC[C@H](C)[C@H](NC(=O)[C@H](Cc1ccccc1)NC(=O)[C@H](CCC(=O)O)NC(=O)[C@H](CCCNC(=N)N)NC(=O)[C@H](C)NC(=O)[C@H](C)NC(=O)[C@H](CCC(N)=O)NC(=O)[C@H](CCC(=O)O)NC(=O)[C@H](CCC(=O)O)NC(=O)[C@H](CC(C)C)NC(=O)[C@H](Cc1ccc(O)cc1)NC(=O)[C@H](CO)NC(=O)[C@H](CO)NC(=O)[C@@H](NC(=O)[C@H](CC(=O)O)NC(=O)[C@H](CO)NC(=O)[C@@H](NC(=O)[C@H](Cc1ccccc1)NC(=O)[C@@H](NC(=O)CNC(=O)[C@H](CCC(=O)O)NC(=O)[C@H](C)NC(=O)CCc1c[nH]cn1)[C@@H](C)O)[C@@H](C)O)C(C)C)C(=O)N[C@@H](C)C(=O)N[C@@H](Cc1c[nH]c2ccccc12)C(=O)N[C@@H](CC(C)C)C(=O)N[C@H](C(=O)N[C@@H](CCCNC(=N)N)C(=O)NCC(=O)N[C@@H](CCCNC(=N)N)C(=O)N[C@@H](CCCCNC(=O)COCCOCCNC(=O)COCCOCCNC(=O)CC[C@H](NC(=O)CCCCCCCCCCCCCCCCC(=O)O)C(=O)O)C(=O)NCC(=O)NCC(=O)N[C@@H](CO)C(=O)N[C@@H](CCCCNc1c(NCCCCCN(O)C(=O)CCC(=O)NCCCCCN(O)C(=O)CCC(=O)NCCCCCN(O)C(C)=O)c(=O)c1=O)C(=O)O)C(C)C [zirconium-89 labelled] |  |  | rat, heart | sc, 3 nmol/kg, 72 h, ex vivo |  | tissue uptake | 0.07 %ID/g |
| CO[C@H]1C[C@@H]2CC[C@@H](C)[C@@](O)(O2)C(=O)C(=O)N2CCCC[C@H]2C(=O)O[C@H]([C@H](C)C[C@@H]2CC[C@@H](OC(=O)NCCOCCOCCOCCOCCOCCOCCOCCOCCC(=O)N3CCc4cc(Cn5nc(-c6ccc7oc(N)nc7c6)c6c(N)ncnc65)ccc4C3)[C@H](OC)C2)C[C@@H](O)[C@H](C)/C=C(\C)[C@@H](O)[C@@H](OC)C(=O)[C@H](C)C[C@H](C)/C=C/C=C/C=C/1C |  | phase 1 dose escalation, item: fatigue | advanced solid tumour patients | intravenous, 16 mg weekly, any grade |  | dose-reducing adverse events | 25% |
| Cc1ncc(OC[C@@]2(c3cccc(F)c3)C[C@H]2C(=O)Nc2ccc(F)cn2)c(C)n1 | MDCK |  |  | 1 µM, 90 min, pH 7.4 apical, 7.4 basolateral |  | Papp A to B | 34.7 ×10⁻⁶ cm/s and 29.4 ×10⁻⁶ cm/s |
| CCN(CC)C(=O)[C@@H]1C=C2c3cccc4[nH]cc(c34)C[C@H]2N(C)C1 |  | item: increased appetite | healthy volunteers | dose not given, 0 to 12 h | baseline: placebo, direction not given | List of Complaints score | 0 |
| COc1cc2c(Oc3ccc4[nH]c(C)cc4c3F)ccnc2cc1OCC1(N)CC1 |  |  | paediatric recurrent refractory sarcoma | 8 mg/kg |  | grade 3 Hematuria | 6.7% |
| C[C@@H](O)[C@H](NC(=O)[C@@H]1CSSC[C@H](NC(=O)[C@@H](Cc2ccccc2)NC(=O)CN2CCN(CC(=O)[O-])CCN(CC(=O)[O-])CCN(CC(=O)[O-])CC2)C(=O)N[C@@H](Cc2ccc(O)cc2)C(=O)N[C@H](Cc2c[nH]c3ccccc23)C(=O)N[C@@H](CCCCN)C(=O)N[C@@H]([C@@H](C)O)C(=O)N1)C(=O)O.[177Lu+3] | MEC1 treated with 100 µM zebularine | gamma counter | serum-free RPMI | 60 min, 37 °C |  | uptake | 1.15% |
| COc1ncnn2ccc(-c3cnc4nc(C)n(Cc5nnc([C@@H](C)F)o5)c4c3)c12 |  |  | human patients | oral, dose not given |  | incidence of creatinine increased (all grades) | 14.3% |
| Oc1ccc2c3c1O[C@H]1[C@@H](O)CC[C@@]4(O)[C@@H](C2)N(CC2CCC2)CC[C@]314 | Chemerin-like receptor 1 (CMKLR1, Homo sapiens, UniProt Q99788) | β-arrestin recruitment, TANGO luminescence |  | concentration not given | baseline: basal luminescence | log2 fold change | 0.533 |
| COc1cc2c(c(OC)c1OC)-c1ccc(OC)c(=O)cc1[C@@H](NC(C)=O)CC2 | Solute carrier family 22 member 2 (SLC22A2, Homo sapiens, UniProt O15244) | transport, inhibitor | transiently transfected cells | 100 µM, 10 (unit not given), with: metformin |  | inhibition | 2.7% |
| Cc1c(Cl)c(=O)oc2cc(OCCCC[Se]C#N)ccc12 | Caenorhabditis elegans |  | N2 Bristol, NGM with E. coli OP50 | 50 µM, 3 days |  | developmental defects | 1.85% |
| O=c1ccc2ccccc2o1 | HepG2 | item: phospholipidosis |  | 24 h, phospholipidosis and steatosis panel |  | point of departure | 674 µM |
| COCCN(CCOC)N=O | Salmonella typhimurium | mutagenicity, Ames plate incorporation | TA98 | 1500 µg/plate, 3 d, without S9, methanol |  | revertant colonies per plate | 29 ± 10 |
| Cc1cc(C(=O)NC(C)(C)COc2cccc3c2C(N)=NS(=O)(=O)N3)cc(C)n1 | Salmonella typhimurium | Ames test, confirmatory | TA1537 | 3333 µg/plate | baseline: solvent control | revertant ratio | 0.7 |
| COc1ccc(N2C(=O)N(c3c(C)cccc3Cl)Cc3cnc(Nc4ccc(C5CCN(C)CC5)cc4OC)nc32)nc1 | cGMP-dependent protein kinase 2 (PRKG2, Homo sapiens, UniProt Q13237) | kinase activity |  | 0.5 µM |  | inhibition | 4% |
| CNC(=O)c1c(N(C)N=O)ncn1C | Escherichia coli | mutagenicity, Ames plate incorporation | WP2 uvrA pKM101 | 2500 µg/plate, without S9, methanol |  | revertant colonies per plate | 114 ± 9 |
| CC[C@H](C)[C@H](NC(=O)[C@H](C)NC(=O)[C@H](CCCCN)NC(=O)[C@H](CC(C)C)NC(=O)[C@H](C)NC(=O)[C@@H](NC(=O)[C@H](Cc1c[nH]cn1)NC(=O)[C@H](CC(C)C)NC(=O)[C@@H](NC(=O)[C@@H](NC(=O)[C@H](CCCCN)NC(=O)[C@H](C)NC(=O)[C@H](C)NC(=O)[C@H](CO)NC(=O)[C@H](CCCCN)NC(=O)[C@H](Cc1ccccc1)NC(=O)[C@@H](NC(=O)[C@H](CCCCN)NC(=O)[C@H](CC(C)C)NC(=O)[C@H](Cc1ccccc1)NC(=O)[C@H](CO)NC(=O)[C@H](CCCCN)NC(=O)[C@H](Cc1c[nH]c2ccccc12)NC(=O)[C@H](CCCCN)NC(C)=O)[C@@H](C)O)[C@@H](C)O)C(C)C)[C@@H](C)O)C(=O)N[C@@H](CO)C(=O)N[C@@H](CO)C(N)=O | Acinetobacter baumannii |  |  | 33 strains |  | MBC90 | 8 µg/mL (≈ 2.73 µM) |
| O=[N+]([O-])c1ccc(N2CCC(NCCC(O)c3ccc(F)c4ccccc34)CC2)c(C(F)(F)F)c1 (stereo not drawn) | Salmonella typhimurium | SOS response, SOS/umu test | TA1535/pSK1002, TGA medium | 7.63e-06 mg/mL, 4 h, without S9 | baseline: untreated | induction factor | 0.6 |
| CC(C)C[C@@H]1NC(=O)[C@H](CC(C)C)NC(=O)[C@H](Cc2c[nH]c3ccccc23)NC(=O)[C@H](CO)NC(=O)[C@H](Cc2c[nH]c3ccccc23)NC(=O)[C@@H]2CCCN2C(=O)[C@H](CC(C)C)NC(=O)[C@H](Cc2c[nH]cn2)NC(=O)[C@@H]2CCCN2C(=O)[C@H](CC(N)=O)NC(=O)[C@H](C)NC(=O)[C@H](Cc2ccc(O)cc2)NC(=O)[C@H](CS)NC(=O)[C@H](CCCCNC(=O)CN2CCN(CC(=O)O)CCN(CC(=O)O)CCN(CC(=O)O)CC2)NC1=O [lutetium-177 labelled] |  | OLINDA dosimetry | BALB/c mice, lung | 37 MBq, 7 days |  | total nuclear transformations | 36.5 MBq-s |
| O=C1c2c(O)c(=O)ccn2N([C@@H]2c3ccccc3SCc3c2ccc(F)c3F)[C@@H]2COCCN12 |  |  | BALB/c mouse, plasma | oral, 50 mg/kg baloxavir marboxil every 12 h, 24 h |  | plasma concentration | 14.3 ng/mL |
| C[C@H]1CN(c2n[nH]c3nc(N[C@H]4CC[C@H](NS(=O)(=O)CCC(F)(F)F)CC4)ncc23)CCO1 | Neurofilament medium polypeptide (Homo sapiens, UniProt P07197) | Kinobeads competition, item: NEFM |  | 0.8 µM, unit not given | baseline: vehicle | remaining binding | 1.06 |
| CN(CC(C)(C)C)N=O | Escherichia coli | mutagenicity, Ames plate incorporation | WP2 uvrA pKM101 | 50 µg/plate, without S9, methanol |  | revertant colonies per plate | 106 ± 9 |
| Cc1cc(-c2ccccc2)nc(SCC(=O)Nc2cccnc2)c1C#N | MDA-MB-231 | MTT |  | 100 µM, 72 h |  | viability | 36 ± 4% |
| C[C@@H](O)[C@@H](CO)NC(=O)[C@@H](CCCNC(=N)N)NC(=O)[C@@H]1CCCN1C(=O)[C@@H]1CSSC[C@H](NC(=O)[C@H](Cc2ccccc2)NC(=O)CN2CCN(CC(=O)O)CCN(CC(=O)O)CCN(CC(=O)O)CC2)C(=O)N[C@@H](Cc2ccc(O)cc2)C(=O)N[C@@H](Cc2ccccc2)C(=O)N[C@@H](CCC(N)=O)C(=O)N[C@@H](CC(N)=O)C(=O)N1 [gallium-68 labelled] |  |  | healthy Wistar rat, lungs | intravenous, 8 MBq, 60 min, individual animals |  | tissue uptake | 0.51 %ID/g |
| C[C@]1(CO)Cc2ncn(-c3ccc(C#N)c(Cl)c3)c2C(=O)O1 |  |  | healthy European subjects | dose not given, single dose, all doses |  | subjects with drug-related TEAE | 8.3% |
| COc1cccc(-c2n[nH]c(SCc3ccccn3)n2)c1OC | Salmonella typhimurium | Ames test, preincubation | TA1535 | 0.031 mg/plate, with rat liver S9 |  | revertant colonies per plate | 12 |

Some of these lines once more:
| Compound | target or system | test | test system | setting | scale | endpoint | result |
| --- | --- | --- | --- | --- | --- | --- | --- |
| Cc1cc(-c2ccccc2)nc(SCC(=O)Nc2cccnc2)c1C#N | MDA-MB-231 | MTT |  | 100 µM, 72 h |  | viability | 36 ± 4% |
| C[C@@H](O)[C@H](NC(=O)[C@@H]1CSSC[C@H](NC(=O)[C@@H](Cc2ccccc2)NC(=O)CN2CCN(CC(=O)[O-])CCN(CC(=O)[O-])CCN(CC(=O)[O-])CC2)C(=O)N[C@@H](Cc2ccc(O)cc2)C(=O)N[C@H](Cc2c[nH]c3ccccc23)C(=O)N[C@@H](CCCCN)C(=O)N[C@@H]([C@@H](C)O)C(=O)N1)C(=O)O.[177Lu+3] | MEC1 treated with 100 µM zebularine | gamma counter | serum-free RPMI | 60 min, 37 °C |  | uptake | 1.15% |
